Measurements of several laboratories.
Numbered parts are unrelated; each lists some results of a single study.

Block 1
Target: Histone acetyltransferase KAT6A, both winged helices, GST fusion (KAT6A, Homo sapiens, UniProt Q92794, residues 1-181)
Method: protein binding microarray
Molecule type: double-stranded DNA, one strand shown
Matrix: in vitro
Concentration: not given
Setting: 8-mer, flanks averaged, mean of 2 arrays, mostly near background
Reference: not given
Reading: higher = stronger binding
Residues (chain): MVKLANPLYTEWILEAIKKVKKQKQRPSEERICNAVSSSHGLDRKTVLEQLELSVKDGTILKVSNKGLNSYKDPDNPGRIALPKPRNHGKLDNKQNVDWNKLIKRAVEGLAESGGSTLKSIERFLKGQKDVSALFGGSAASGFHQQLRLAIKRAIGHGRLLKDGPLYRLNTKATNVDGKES
With `ATAACTCA` the E-score was -0.11.
The E-score of `AATGGCGA` is reported as -0.00587.
The E-score of `CTGGAGAA` is reported as -0.145.
The E-score of `AGTAGGCA` is reported as -0.256.
With `ACCAACCT` the E-score was -0.0331.
`CTGCGACC` gave an E-score of -0.00269.
`AGGGGCTG` gave an E-score of -0.16.
The E-score of `GATTGTGA` is reported as -0.0296.
For `AGCCATCG`, the E-score was -0.099.

Block 2
Target: Fragile X messenger ribonucleoprotein 1, C-terminal low-complexity region (Fmr1, Mus musculus, UniProt P35922)
Method: RNA Bind-n-Seq
Molecule type: RNA
Matrix: in vitro
Concentration: 200 nM
Setting: whole 134-nt RNA, ends assumed
With: 150 mM KCl
Reference: input library
Reading: higher = stronger binding
Shared flanks, not repeated: GGGAGUUCUACAGUCCGACGAUC … UGGAAUUCUCGGGUGUCAAGG
`UGUGCUACACAUCGUAUGUACCGAAUCGGGGUUUUUUUGGGGUUUUUUUGGUUUUUUUGGGGAAAGUAUUAUGUUACGCCGUUCGGAUCU` gave a log2 enrichment of 0.156.
`AAGUCCUGUGCUACACAUCGUAUGUACCGAAUCGGGAAAGGGGAAAGGGAAAGGGGAAAGUAUUAUGUUACGCCGUUCGGAUCUGCACUU` gave a log2 enrichment of 0.282.
For `CAAGUCCUGUGCUACACAUCGUAUGUACCGAAUCGGGAAAAGGGAAAAGGAAAAGGAAAGUAUUAUGUUACGCCGUUCGGAUCUGCACUU`, the log2 enrichment was -0.721.
With `AGUCCUGUGCUACACAUCGUAUGUACCGAAUCGGGUUUGGGUUUGGGUUUUUUUGGGAAAGUAUUAUGUUACGCCGUUCGGAUCUGCACU` the log2 enrichment was 0.424.
The log2 enrichment of `UAACUUUAGAGGAGGAUCUGAUGGAUAUGGCAGUGGACGUGGAUUUGGGGAUGGCUAUAAUCGGUAUGGAGGAGGACCUGGAGGUGGCAA` is reported as 0.172.
`AAGUCCUGUGCUACACAUCGUAUGUACCGAAUCGGGCCCCGGCCCCGGGCCCCGGGGAAAGUAUUAUGUUACGCCGUUCGGAUCUGCACU` has a log2 enrichment of -0.79.
With `UUUUCAAGGGGGCCCCAACUGGGGCCGCCUUGUAGCCUUCUUUGUCUUUGGGGCUGCACUGUGUGCUGAGAGUGUCAACAAGGAGAUGGA` the log2 enrichment was -1.17.
`GCAGGAAGUAAAAACAAAUGGAAAUGCUUCGGAUAGUGGCAGGGGUGGGGGUUGCUAAGGAAAGGGUCGGAUGGGAGUGGGUAAAGAGUU` gave a log2 enrichment of 0.326.
`UGGGAGGUGGAUUUUGUUUAUUUUUUUAGCUCAUUUCCAGGGGUGGGAAUUUUUUAUUAAUAUGUGUCAUGAAUAAAGUUGUUUUUGAAA` has a log2 enrichment of 0.254.
`CACAGACAACACGCACCCACACAGACACAGAGGGAAGGGGUUGGGAUGGGGACAGGGUGUACAGCAGGGCGGGGUAGGACCCCAGCCCCU` has a log2 enrichment of 1.26.
The log2 enrichment of `UCCUGUGCUACACAUCGUAUGUACCGAAUCGGAAAAAAGGAAAAAAGGGGAAAAAAGGGGAAAGUAUUAUGUUACGCCGUUCGGAUCUGC` is reported as -0.641.

Block 3
Target: RNA binding protein fox-1 homolog 2, RRM domain, GST-SBP tag (RBFOX2, Homo sapiens, UniProt O43251-10, residues 100-194)
Method: RNA Bind-n-Seq
Molecule type: RNA
Matrix: in vitro
Concentration: 365 nM
Setting: natural RNA segment, single round, ends assumed
Reference: no-protein control
Reading: higher = stronger binding
Shared flanks, not repeated: GGGAGUUCUACAGUCCGACGAUC … UGGAAUUCUCGGGUGCCAA
Target sequence (chain): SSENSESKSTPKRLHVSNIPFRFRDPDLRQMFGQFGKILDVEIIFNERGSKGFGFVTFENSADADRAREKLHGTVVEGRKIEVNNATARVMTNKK
Under “RBNS enrichment (R)”, `CCCUACAUCCCACCCUCCUCUUGACGCGUUUCUGGUGGUUUCGGUUUCUGCGUUGCCCUCCAGAUCCUGAGGUGGGCCGUGAGACGACUUGCUUUAAACUCUGUUCAAUC` is recorded as 0.313.
Under “RBNS enrichment (R)”, `UUUAAUUAUCCUAAUGUUAUUUCACUUGCCCUUAUGCUUUAUUUUAGAGUCCCAGGGACAACUGGAUGAAACAUUACGUCUGUAGUCAUCUUAUUUGAGAUGGGGGUGGG` is recorded as 0.381.
For `GCUGCUGCGUCUAUCAGGAGAGCAGGAUCAGAUUAUGGUAUCCAGAUACCAGUAGAAGAAUUGGAUGUUAUACUAUACUUAGCACCUUAAUUCUACUUAACAUUUACUUC`, “RBNS enrichment (R)” read 0.293.
`GAAGCUGAUUUCAUCUAAGGAUGGGUUGAAGUAGGAUGUGCUCCUGCGACUUCUCAGGCAGGUGAGAGGGGUAGUCCUUACACUGUCUAGCAUAAACGCCUUCCGGAAGG` — result for “RBNS enrichment (R)”: 0.48.
`GAAGGCUGAGCACUUAUCUGGAUCAUUUGGUCAGUUUGGUAAUUCCUGCUCCACACCCCUAUUUUCCUCUUAAUAAUACGUUUGGGUGAAGACAAAUUAGUGUUUAGUAA`: “RBNS enrichment (R)” 0.379.
Under “RBNS enrichment (R)”, `UUCUACUUUGUAUCCAUGACUUCUCCGAAUCAAACCACGGUAUAUGUUGUGACAAUAUCUAUGGCCACUGUUAGCCCAUUAUGUUCAUUCCAAUUAGAAGAAAUGUGAAU` is recorded as 0.873.
For `AGAAAGAACAUUUGUGAAUUGCAGUUGUCAAAAAAAAAAAAUAGCCUAGCUGGCCUUAUUUGUGAAGCAUAAUUGCUUUUAGCAUAUGGAAGUAUUUUUUCACAUUUUCU`, “RBNS enrichment (R)” read 0.361.
For `CACUAAAGGUUUCUUUAUUAGUUCUCCAGUUAAACCUAGAUCCCUCCCUGGUAGAUUGCGAACUCAAAGUUUUGUGAUCCCAAAGCCAUUCCACUGCAAAUGCCCAGCAG`, “RBNS enrichment (R)” read 0.436.
Under “RBNS enrichment (R)”, `UGGAGAAGCCCCCAGGAGGAGGGCAACUAAGUGUCAUUAUACCCAGUGUCUGGCUCCCUGAUAGGAGGGAGGUCCCAGGGUAGGAGCGGGCUGGCAGGCGCUGACUGCCU` is recorded as 0.734.

Single results of other studies
With `PhoQ, residues 284 288 289 292 302 303 SSTMSV` the fold induction was 0.719 (PhoP, residues 12 14 15 18 19 AYFRS (Escherichia coli, UniProt P23836); Sort-seq, item: YFP reporter; E. coli; PhoQ-PhoP variant library, with: 10 µM Mg2+; reference: high Mg2+ state, higher = stronger signaling).
